# Measured values gathered from unrelated publications.
# A part holds a random share of what one study measured. Positions count from the first letter of the parent shown.

# Block 1
# Target: ABI1, truncated, D143A, DHFR fusion (Arabidopsis thaliana)
# Technique: DHFR PCA, deep sequencing
# Sample: yeast
# Setting: methotrexate growth selection, single substitutions
# Together with: (+)-ABA 0.032 µM
# Reference: wild-type fitted maximum
# Reading: higher = stronger binding
# Starting sequence: PYL1, truncated, DHFR fusion (Arabidopsis thaliana); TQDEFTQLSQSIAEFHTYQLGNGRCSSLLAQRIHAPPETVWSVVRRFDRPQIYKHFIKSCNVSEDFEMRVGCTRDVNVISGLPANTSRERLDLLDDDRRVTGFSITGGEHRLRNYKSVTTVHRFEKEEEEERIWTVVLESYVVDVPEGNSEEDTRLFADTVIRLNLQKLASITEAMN
Change,relative binding score
H34V,5.42%
S9Q,54.6%
C25D,-8.82%
L93I,68%
S11Y,15.9%
L156H,3.21%
D96E,31%
S59G,5.96%
P83Y,7.82%
N165P,5.28%
F56Q,-6.44%
S117I,-1.73%
G148C,6.52%
V137I,3.81%
V70D,3.91%
V70F,1.92%
E139I,-6.35%
L91R,-3.32%
I162S,4.98%
D75R,4.54%
K126Q,40.4%
D95V,-2.97%
S27K,-9.8%
D95M,-4.08%
G81I,3.24%

# Block 2
# Target: CCND2, cyclin fold, Cln2 fusion (human)
# Technique: yeast growth competition, sequencing
# Sample: yeast
# Setting: weak parent motif
# Reference: not given
# Reading: higher = stronger binding
# Starting sequence: PKMYT1 docking peptide (human); SFEPRNLLSLFED
Change,normalised enrichment score
SFEPRNLLSFFED [L10F],-0.125
SFEPRNLLSLFGD [E12G],-0.349
SFMPRNLLSLFED [E3M],0.265
SEEPRNLLSLFED [F2E],0.0545
SFEVRNLLSLFED [P4V],-0.00824
SFEPRKLLSLFED [N6K],0.156
SFEPRNTLSLFED [L7T],-0.0298
SYEPRNLLSLFED [F2Y],0.232
SFEPRNLLSLFEH [D13H],-0.611
SFEPRNLLSLFEW [D13W],-0.149
TFEPRNLLSLFED [S1T],-0.229
SFEPNNLLSLFED [R5N],-0.0372
SFEPKNLLSLFED [R5K],0.153
SFECRNLLSLFED [P4C],0.102
SFEPRMLLSLFED [N6M],-0.235
SFEKRNLLSLFED [P4K],0.177
SFEPRNQLSLFED [L7Q],0.043
WFEPRNLLSLFED [S1W],0.0444
SFEPRNLLSLFVD [E12V],0.408
SFEPVNLLSLFED [R5V],0.222
SFEPRNCLSLFED [L7C],0.344
SFEPRNLTSLFED [L8T],0.316
SFEPRNLLYLFED [S9Y],0.125
SFENRNLLSLFED [P4N],-0.0411

# Block 3
# Target: TAR DNA-binding protein 43, full length, His tag (TARDBP, Homo sapiens, UniProt Q13148, residues 1-414)
# Technique: RNA Bind-n-Seq
# Form: RNA
# Sample: in vitro
# Concentration: 20 nM
# Setting: 6-mer, flanks averaged, single round
# Together with: 150 mM KCl
# Reference: input library
# Reading: higher = stronger binding
Sequence,6-mer enrichment (R)
CUUCCG,0.593
AAGGCG,1.52
CUAGGU,0.787
CGCGGA,1.53
UAUUCC,0.566
GCCACA,0.782
AUAUGC,0.664
UUAUGA,0.668
GUCCUG,0.838
GCAAAA,0.792
UUUCAU,0.559
UUUUGG,0.864
CAUGCU,0.64
GCGUAU,0.906
UCACAG,0.676
UUCCUG,0.601
GGGCAG,4.6
GACUUC,0.595
UGUAAC,0.65
CUAGCU,0.6
ACAGCC,0.667
UAACCA,0.613
AAUGCC,0.668

# Block 4
# Target: RNA binding protein fox-1 homolog 2, RRM domain, GST-SBP tag (RBFOX2, Homo sapiens, UniProt O43251-10, residues 100-194)
# Technique: RNA Bind-n-Seq
# Form: RNA
# Sample: in vitro
# Concentration: 365 nM
# Setting: natural RNA segment, single round, ends assumed
# Reference: no-protein control
# Reading: higher = stronger binding
# Target sequence (chain): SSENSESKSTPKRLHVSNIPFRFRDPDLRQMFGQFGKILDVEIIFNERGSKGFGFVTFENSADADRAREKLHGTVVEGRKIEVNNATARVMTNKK
Sequence,RBNS enrichment (R)
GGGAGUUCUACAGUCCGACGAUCACUUAUGUGAGGGGUUUUCCCAUUUUUUGUCUUGUUGGUGCUCAAAAAGUUUUGGAUUUUGGAGCAUUUCGGAUUUUGGAUUUUUGGAUUAGGGUUGCUCAACCCAUAUUUGGAAUUCUCGGGUGCCAA,1.47
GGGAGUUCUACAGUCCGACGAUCCAUAAUUUAAUACAGAUUGAUGUUAAUACUUGUGUAUUUACAUAACCGUUUCCUUCUUGUCACUGAAAUAUAUGGACCUUAAUUUGUAUCCUGACUGACUCAACCCAGCAUGGAAUUCUCGGGUGCCAA,1.64
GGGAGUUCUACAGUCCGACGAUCAAGAGAGCCAAAUUAGAGGCUCAUACUUUAGCUUGUGAAGAAGAUAAUGAAUUUUUUAAAGGGAACUUUCUAUGCAAUGUUCAGGAUAAAUGCAUACUGCUGGCCAAUCAUGGAAUUCUCGGGUGCCAA,1.87
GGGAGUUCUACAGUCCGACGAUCGACUCGCUUGUAUUUUAAGAGAACCAAGUGGCCAAAGAAACUCUUUCUAACUUUGGCAACAUCAGAACUUGCCACAUGUAGCUACUGCAGCAAGGCUUCUGUGUACUUGCUGGAAUUCUCGGGUGCCAA,0.448
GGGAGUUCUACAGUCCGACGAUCUCCCUCCCAGCUUUGGAAGCCUCAUCCGCGUGUGUGUGUGUGUGUAUGUGUAGACAAGCUCUCGCUCUGUCACCCAGGCUGGAGUGCAGUGGUGCAAUCAUGGUUCACUGUGGAAUUCUCGGGUGCCAA,0.414
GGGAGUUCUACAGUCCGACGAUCAAAGGGAAAAAGGUGGAUUCAGAACUAUGACUUCAGGGCCCAGCAGUGUUGAUAGAGCAGCAUAUUAGACAAACACACAGUUGUUAGUUUUCAGACAUUCGCUCACGGACUGGAAUUCUCGGGUGCCAA,1.08
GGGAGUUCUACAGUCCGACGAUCUAUAUAGUGCCACUGUGCCUUCUCAUUUGUUUCUGAAUUUUCCACAUUUUAUUACAAAAUGUAGAAAUGCUAGCCCAUCUCCCCCUGCCCUAUACAUUUGCUCUUCCUAUUGGAAUUCUCGGGUGCCAA,0.686
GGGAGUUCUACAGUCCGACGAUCAUCCUGAAAUACGGCGUGUGUACUUUAACAAGGGCCUUGAAGCCAAGAUCAAGUGCUGGAGGCCGGAGCCAUCUGUGAGCCUCCCUAAGCCACAGCAGUGAGGAGAUUUGUGGAAUUCUCGGGUGCCAA,0.279
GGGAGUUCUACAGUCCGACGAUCUAGUCUCUCUUUACAUAUUACUAUAUGGAAAUGAAUUGCUCUGUGCUGAAAUUUGAAGACCAGAUAAUGAAACUGAAAAGCAAACAAUUUUACUGAAUCUGUCUACCCUUUGGAAUUCUCGGGUGCCAA,0.51
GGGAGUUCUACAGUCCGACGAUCACUGGGGGUUAUGCAGCGUGGUCCAGCCGGAGCGGCCAGCAUGACCAGCUGUCCAGGGGCUGCCUCCUGCCUUUUUUUUUGUAAAGACAAGACCCUUGGGAGUUUUCAUUUGGAAUUCUCGGGUGCCAA,0.556
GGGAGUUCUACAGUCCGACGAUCUAGCUAUGAAGAAAACACAAAGUGUAUAAAUCUGAGUAUAUAUUUACAUGUCUUUUUAAAAGGGUCGUACCAGAGAUUUACCCAUCGGGUAAGAUGCUCCUGGUGGCUGGUGGAAUUCUCGGGUGCCAA,0.396
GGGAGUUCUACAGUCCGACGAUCCUCAAGGCAGUAUGAUAUACCCUAGUCUUUGGUGCCUCUAGUAUAUGUGACCAGGUGUCGUCCUGCAUGUAAAUCUCCGAGCUGAGUCUGACUCACAGCCCAUGCUGUCAUGGAAUUCUCGGGUGCCAA,0.873

# Other studies, line by line
Molecule,target,assay,test system,setting,scale,quantity,value
"PhoQ, residues 284 288 289 292 302 303 AGGCYF","PhoP, residues 12 14 15 18 19 LHTVM (Escherichia coli, UniProt P23836)","Sort-seq, refers to: YFP reporter",E. coli,"PhoQ-PhoP variant library, together with: 10 µM Mg2+","reference: high Mg2+ state, higher = stronger signaling",fold induction,8.45

# Excerpt of the above (block 3):
Sequence,6-mer enrichment (R)
UUCCUG,0.601
GGGCAG,4.6
GACUUC,0.595
UGUAAC,0.65
CUAGCU,0.6
ACAGCC,0.667
UAACCA,0.613
AAUGCC,0.668
